# Assay results of several laboratories.
# Compare with care: the assays were run in different laboratories. ± gives the spread as reported.
SMILES,organism,test,system,setting,IC50
NCCCC[C@H](N)C(=O)NCC(=O)N[C@@H](CC(=O)O)C(=O)N[C@@H](CC(=O)O)C(=O)N[C@@H](Cc1ccccc1)C(=O)N[C@@H](Cc1ccccc1)C(=O)N1CCC[C@H]1C(=O)N[C@@H](Cc1ccc(O)cc1)C(=O)N[C@@H](Cc1ccc(O)cc1)C(=O)N[C@@H](Cc1c[nH]cn1)C(=O)N[C@@H](CO)C(=O)O,Ebola virus,pseudovirus infection,,pseudotyped virus,47.5 µM
COC(=O)CCCC1C2CCCN3CCCC(CN1Cc1ccc(Cl)c(Cl)c1)C23 (stereo not shown),Ebola virus,viral entry,,EBOV GP pseudotyped HIV,5.29 µM
CC(C)(C)[Si](C)(C)OC[C@H]1O[C@@H](n2cc(F)c(=O)[nH]c2=O)[C@H](I)[C@@H](O[Si](C)(C)C(C)(C)C)[C@@H]1O[Si](C)(C)C(C)(C)C,Japanese encephalitis virus,"viral replication, inhibitor, ELISA",Vero,,3.21 µM
Oc1cc(O)c2c(c1)O[C@@]1(c3ccc(O)c(O)c3)Oc3cc(O)c4c(c3[C@@H]2[C@H]1O)O[C@H](c1ccc(O)c(O)c1)[C@H](O)C4,HIV pseudovirus with SARS-CoV S,"viral entry, inhibitor",HepG2,,121 ± 13.1 µM
C[C@@H]1CCCN1CCc1cc2cc(-c3ccc(C#N)cc3)ccc2o1,Naegleria fowleri,alamarBlue,ATCC 30808,"48 h, trophozoites",3.65 ± 0.79 µM
CCOP(=O)(COCCn1cnc(C#N)c1C#N)OCC,Severe acute respiratory syndrome coronavirus,viral replication,Vero,48 h,20 µg/mL
CCCCCCCCCCCCC1O[C@@H]2C[C@H]3[C@@H]4CCC5=CC(=O)C=C[C@]5(C)[C@H]4[C@@H](O)C[C@]3(C)[C@]2(C(=O)CO)O1 (stereo partly shown),Severe acute respiratory syndrome coronavirus 2,viral replication,VeroE6/TMPRSS2,,6.4 µM
O=[N+]([O-])c1ccc(-n2nc(-c3ccccc3)cc2-c2ccc(F)cc2)c([N+](=O)[O-])c1,Japanese encephalitis virus,plaque formation,N2a,72 h,~5 µM
O=C(O)CCCC1C2CCCN3CCCC(CN1Cc1ccc(Cl)c(Cl)c1)C23 (stereo not shown),Ebola virus,viral entry,,EBOV GP pseudotyped HIV,78.6 µM
COC(=O)c1ncn(CCO)c1C(=O)OC,Zaire ebolavirus,"viral replication, inhibitor",Vero,72 h,17 µg/mL
COC(=O)CC1C2CCCN3CCCC(CN1Cc1ccc(Cl)cc1)C23 (stereo not shown),Ebola virus,viral entry,,EBOV GP pseudotyped HIV,28.1 µM
CC[C@@]1(O)C[C@H](O[C@H]2C[C@H](N(C)C)[C@H](O[C@H]3C[C@H](O)[C@H](O[C@H]4CCC(=O)[C@H](C)O4)[C@H](C)O3)[C@H](C)O2)c2c(cc3c(c2O)C(=O)c2c(O)cccc2C3=O)[C@H]1C(=O)OC,SARS-CoV-2 NLuc reporter,viral replication,Calu-3,16 h compound pretreatment,0.173 µM
CCOP(=O)(CCOCn1cnc(C#N)c1C#N)OCC,Severe acute respiratory syndrome coronavirus,viral replication,Vero,48 h,23 µg/mL
CN1CCN(C(=O)N[C@@H](Cc2ccccc2)C(=O)N[C@H](/C=C/S(=O)(=O)c2ccccc2)CCc2ccccc2)CC1,Middle East respiratory syndrome-related coronavirus,viral entry,Vero,pseudovirus,0.0461 ± 0.00663 µM
COC(=O)c1ncn(CCOC(C)=O)c1C(=O)OC,Severe acute respiratory syndrome coronavirus,viral replication,Vero,48 h,46 µg/mL
Cn1cnc(Cn2c(=O)[nH]/c(=N\c3cc4cn(C)nc4cc3Cl)n(Cc3cc(F)c(F)cc3F)c2=O)n1,Betacoronavirus 1,"viral replication, qPCR","OC43, human",,0.09 µM
O=C(O)CCCC1C2CCCN3CCCC(CN1S(=O)(=O)c1ccc(Cl)cc1)C23 (stereo not shown),Ebola virus,viral entry,,EBOV GP pseudotyped HIV,30.2 µM
COCCOC(=O)N1CCC2(CCCN(Cc3ccc(Cl)c(Cl)c3)C2)C1 (stereo not shown),Mycobacterium tuberculosis,resazurin,rel knockout,"168 h, nutrient-starved",64 µM
C[C@]12C=CC(=O)C=C1CC[C@@H]1[C@@H]2[C@@H](O)C[C@@]2(C)[C@H]1C[C@H]1OC(c3ccccc3)O[C@]12C(=O)CO (stereo partly shown),Severe acute respiratory syndrome coronavirus 2,"viral replication, inhibitor",VeroE6/TMPRSS2,24 h,> 30 µM
COC(=O)c1ncn(C2CC(O)C(CO)O2)c1C(=O)OC (stereo not shown),Mammarenavirus lassaense,"viral replication, inhibitor",Vero,48 h,13 µg/mL
COc1cc(-c2oc3cc(O)cc(O)c3c(=O)c2O[C@@H]2O[C@H](CO)[C@@H](O)[C@H](OC(C)=O)[C@H]2O)ccc1O,influenza A virus,hemagglutination,A/Tern/South Africa/1/61 (H5N3),,40.8 ± 0.5 µM
O=C(O)c1ncn(CCO)c1C(=O)O,Severe acute respiratory syndrome coronavirus,viral replication,Vero,48 h,28 µg/mL
CC(C)[C@H](NC(=O)[C@H](Cc1ccccc1)NC(=O)[C@H](Cc1ccccc1)NC(=O)[C@H](CC(=O)O)NC(=O)[C@H](CC(=O)O)NC(=O)CNC(=O)[C@H](CCCCN)NC(=O)[C@H](CCCCN)NC(=O)[C@@H](N)Cc1c[nH]cn1)C(=O)N[C@@H](Cc1ccc(O)cc1)C(=O)N[C@@H](C)C(=O)N[C@@H](CC(=O)O)C(=O)N[C@@H](Cc1ccc(O)cc1)C(=O)O,Ebola virus,pseudovirus infection,,pseudotyped virus,21.7 µM
N#Cc1ncn(COCCBr)c1C#N,Zaire ebolavirus,"viral replication, inhibitor",Vero,72 h,43 µg/mL
COc1cccc2c1C(=O)c1c(O)c3c(c(O)c1C2=O)C[C@@](O)(C(=O)CO)C[C@@H]3O[C@H]1C[C@H](N)[C@H](O)[C@H](C)O1,SARS-CoV-2 NLuc reporter,viral replication,Calu-3,16 h compound pretreatment,0.04 µM
COc1cc(-c2oc3cc(O[C@@H]4O[C@@H](C)[C@H](O)[C@@H](O)[C@H]4O)cc(O)c3c(=O)c2O[C@@H]2O[C@H](CO[C@@H]3O[C@@H](C)[C@H](O)[C@@H](O)[C@H]3O)[C@@H](O)[C@H](OC(C)=O)[C@H]2O)ccc1O,influenza A virus,hemagglutination,A/chicken/FPV/Rostock/1934 (H7N1),,97.4 ± 2.7 µM
COC(=O)c1ncn(C2OC(COC(C)=O)C(OC(C)=O)C2OC(C)=O)c1C(=O)OC (stereo not shown),Severe acute respiratory syndrome coronavirus,viral replication,Vero,48 h,40 µg/mL
O=C1c2c(O)ccc(O)c2C(=O)c2c(NCCNCCO)ccc(NCCNCCO)c21,SARS-CoV-2 NLuc reporter,viral replication,Calu-3,16 h compound pretreatment,0.016 µM

# Excerpt of the above:
SMILES,organism,test,system,setting,IC50
CCOP(=O)(COCCn1cnc(C#N)c1C#N)OCC,Severe acute respiratory syndrome coronavirus,viral replication,Vero,48 h,20 µg/mL
CCCCCCCCCCCCC1O[C@@H]2C[C@H]3[C@@H]4CCC5=CC(=O)C=C[C@]5(C)[C@H]4[C@@H](O)C[C@]3(C)[C@]2(C(=O)CO)O1 (stereo partly shown),Severe acute respiratory syndrome coronavirus 2,viral replication,VeroE6/TMPRSS2,,6.4 µM
